Assay results gathered from unrelated publications.
Protocols differ between the studies behind these lines.
EGFR: Epidermal growth factor receptor (EGFR, Homo sapiens, UniProt P00533)
EGFR L858R: Epidermal growth factor receptor (EGFR, Homo sapiens, UniProt P00533, L858R)
EGFR L858R/T790M: Epidermal growth factor receptor (EGFR, Homo sapiens, UniProt P00533, L858R/T790M)
EGFR G719S: Epidermal growth factor receptor (EGFR, Homo sapiens, UniProt P00533, G719S)
EGFR L861Q: Epidermal growth factor receptor (EGFR, Homo sapiens, UniProt P00533, L861Q)

SMILES | target or system | assay | test system | setting | how to read | measurement | result
COc1cc(N2CCN(C)CC2)ccc1Nc1nc(N)n(C(=O)NCc2ccccc2S(=O)(=O)C(C)C)n1 | Epidermal growth factor receptor (EGFR, Homo sapiens, UniProt P00533, G719C) | enzyme activity |  | 10 µM | reference: control | remaining activity | 1%
O=C(NC1CCC1)c1ccc2nc(-c3cccc(NS(=O)(=O)NCCN4CCCCC4)c3)cn2c1 | EGFR | enzyme activity |  | 10 µM |  | remaining activity | 100%
CCOc1cc(N2CCN(C)CC2)ccc1Nc1nc(N)n(C(=O)NCc2ccccc2S(=O)(=O)C(C)C)n1 | Epidermal growth factor receptor (EGFR, Homo sapiens, UniProt P00533, A750P/del747-749) | enzyme activity |  | 10 µM | reference: control | remaining activity | 19%
COc1ccc(-c2nn(-c3ccc(S(C)(=O)=O)cc3)cc2C=N/N=c2\[nH]c(-c3ccc([N+](=O)[O-])cc3)cs2)cc1 | EGFR L858R | kinase activity, inhibitor |  | 1 µM |  | inhibition | 80.3%
CC(C)C[C@H](NC(=O)[C@H](CO)NC(=O)[C@H](CO)NC(=O)CNC(=O)[C@@H]1CCCN1C(=O)[C@H](Cc1ccc(O)cc1)NC(=O)[C@H](CC(C)C)NC(=O)[C@H](CO)NC(=O)[C@H](CS)NC(=O)[C@H](CC(C)C)NC(=O)[C@@H](N)CC(C)C)C(=O)O | Epidermal growth factor receptor, extracellular domain (EGFR, Homo sapiens, UniProt P00533) | binding, first site, surface plasmon resonance | immobilised soluble EGFR | model, binding, one to two |  | koff | 0.06 s⁻¹
COc1cc(-c2cncc3c2CN(C)Cc2cc(N4CCNCC4)ccc2-3)cc(OC)c1OC | EGFR L858R/T790M | kinase activity |  | 1 µM, together with: ATP 10 µM | reference: DMSO control | remaining activity | 106%
CC(C)Oc1cc(N2CCN(C)CC2)ccc1Nc1nc(N)n(C(=O)NCc2ccccc2S(=O)(=O)C(C)C)n1 | EGFR G719S | enzyme activity |  | 10 µM | reference: control | remaining activity | 5.4%
C[C@@H](c1ccc(-n2cnc3c(N)ncnc32)cc1)N1CCc2nn(C)c(Cc3ccccc3)c2C1=O | EGFR L861Q | KINOMEscan |  | 0.1 µM | reference: DMSO control | remaining binding | 72%
Cc1cc(Nc2nn(-c3ccccc3)c(=O)c3ccccc23)n[nH]1 | OCI-Ly1 |  |  | 1 µM, 120 h |  | viability | 21.2%
CC(C)C[C@H](NC(=O)[C@H](CO)NC(=O)[C@H](CO)NC(=O)CNC(=O)[C@@H]1CCCN1C(=O)[C@H](Cc1ccc(O)cc1)NC(=O)[C@H](CC(C)C)NC(=O)[C@H](CO)NC(=O)[C@H](CS)NC(=O)[C@H](CC(C)C)NC(=O)[C@H](CC(C)C)NC(=O)CCCCCNC(=S)Nc1ccc2c(c1)C(=O)OC21c2ccc(O)cc2Oc2cc(O)ccc21)C(=O)O | EGFR | binding, second site, LigandTracer cell binding | A-431 | FITC-labelled, model, binding, one to two |  | koff | 6.29e-05 s⁻¹
O=C(/C=C/c1ccc(CN(CCO)CCc2c[nH]c3ccccc23)cc1)NO | OCI-Ly1 |  |  | 1 µM, 120 h |  | viability | 0.487%
[2H]c1cc(C)c(NC(=O)c2cnc(Nc3cc(N4CCCCC4)nc(C)n3)s2)c(Cl)c1 | EGFR L858R/T790M |  |  | 0.01 µM |  | inhibition | < 30%
COc1cc(N2CCN(C)CC2)ccc1Nc1nc(N)n(C(=O)NCc2c(Cl)cccc2Cl)n1 | EGFR L861Q | enzyme activity |  | 10 µM | reference: control | remaining activity | 9.6%
CC(C)Cc1ccc(-c2nn(-c3ccc(S(C)(=O)=O)cc3)cc2/C=N/N=c2\[nH]c(-c3ccc([N+](=O)[O-])cc3)cs2)cc1 | EGFR L858R | kinase activity, inhibitor |  | 0.01 µM |  | inhibition | 28%
COc1cc2ncnc(Nc3ccc(F)c(Cl)c3)c2cc1OCCCN1CCN(C(=O)CCCCCCCCCCNC(=O)C[C@H](NC(=O)[C@@H]2C[C@@H](O)CN2C(=O)[C@@H](c2cc(C)no2)C(C)C)c2ccc(-c3scnc3C)cc2)CC1 | Epidermal growth factor receptor (EGFR, Homo sapiens, UniProt P00533, del746-750) | protein degradation, degrader, western blot | HCC827 | 100 nM |  | time to significant reduction | ≤ 4 h
C=CC(=O)N1CCC(COCC(=O)N2CCN(c3nc(-c4cnc(N)nc4C(F)F)nc(N4CCOC[C@@H]4C)n3)CC2)CC1 | EGFR L858R | KINOMEscan |  | 1 µM | reference: DMSO control | remaining binding | 89%
C=CC(=O)N1CCC(C(=O)NCC(=O)N2CCN(c3nc(-c4cnc(N)nc4C(F)F)nc(N4CCOCC4)n3)CC2)CC1 | Epidermal growth factor receptor (EGFR, Homo sapiens, UniProt P00533, del752-759) | KINOMEscan |  | 1 µM |  | remaining binding | 92%
COc1ccc(-c2nn(-c3ccc(S(C)(=O)=O)cc3)cc2/C=N/N=c2\[nH]c(-c3ccc(Br)cc3)cs2)cc1 | EGFR L858R | kinase activity, inhibitor |  | 1 µM |  | inhibition | 73%
C#Cc1cc(-c2cc(Nc3nc(N[C@@H](C)c4ccc(F)cn4)ncc3Cl)n[nH]2)ccc1C=O | EGFR | enzyme activity, inhibitor |  | 0.2 µM |  | inhibition | 10.4%
CCCOc1ccc(OC)c(F)c1C(=O)c1ccc(C(=O)N[C@@H]2CNC[C@H]2NC(=O)c2ccc3[nH]ncc3c2)cc1 | Epidermal growth factor receptor (EGFR, Homo sapiens, UniProt P00533, T790M) | enzyme activity |  | 10 µM |  | remaining activity | 106%
COc1cc(N2CCN(C)CC2)ccc1Nc1nc(N)n(C(=S)NCc2c(Cl)cccc2Cl)n1 | EGFR G719S | enzyme activity |  | 10 µM | reference: control | remaining activity | 4.2%

For quick reference, copied from above:
SMILES | target or system | assay | test system | setting | how to read | measurement | result
COc1cc(N2CCN(C)CC2)ccc1Nc1nc(N)n(C(=O)NCc2ccccc2S(=O)(=O)C(C)C)n1 | Epidermal growth factor receptor (EGFR, Homo sapiens, UniProt P00533, G719C) | enzyme activity |  | 10 µM | reference: control | remaining activity | 1%
O=C(NC1CCC1)c1ccc2nc(-c3cccc(NS(=O)(=O)NCCN4CCCCC4)c3)cn2c1 | EGFR | enzyme activity |  | 10 µM |  | remaining activity | 100%
CCOc1cc(N2CCN(C)CC2)ccc1Nc1nc(N)n(C(=O)NCc2ccccc2S(=O)(=O)C(C)C)n1 | Epidermal growth factor receptor (EGFR, Homo sapiens, UniProt P00533, A750P/del747-749) | enzyme activity |  | 10 µM | reference: control | remaining activity | 19%
